Measurements collected from several papers.
Each numbered part is a random draw from the data of one study; scales do not carry over between parts. Substitutions count along the parent as printed.

Block 1
Target: RING finger protein unkempt homolog, zinc fingers 1-6, GST-SBP tag (UNK, Homo sapiens, UniProt Q9C0B0, residues 30-357)
UniProt Q9C0B0, sequence (30-357, looked up): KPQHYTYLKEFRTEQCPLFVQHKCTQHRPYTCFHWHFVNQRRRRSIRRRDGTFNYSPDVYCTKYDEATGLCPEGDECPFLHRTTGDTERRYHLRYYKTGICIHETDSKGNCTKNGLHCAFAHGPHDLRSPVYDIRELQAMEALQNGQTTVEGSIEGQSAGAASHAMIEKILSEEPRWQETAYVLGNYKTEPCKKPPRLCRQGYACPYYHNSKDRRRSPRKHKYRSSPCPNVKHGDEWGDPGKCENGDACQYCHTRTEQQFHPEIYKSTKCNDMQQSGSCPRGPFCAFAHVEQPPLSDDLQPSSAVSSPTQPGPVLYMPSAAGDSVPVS
Technique: RNA Bind-n-Seq
Form: RNA
Medium: in vitro
Concentration: not given
Setting: RNA with constant flanks, human-mouse chimeric sites, ends assumed
Relative to: input RNA pool
Reading: higher = stronger binding
Constant ends, left off below: GGGAGUUCUACAGUCCGACGAUC … CAACAGAGGAUUGAGCAUCA
Oligonucleotide	bound/input enrichment [ratio]
GGAAGUACAAUGAUGGAAAUAGAUGGCGACAAAGGCAAGCAGGGCGGGCCCACCUACUACAUAGACACUAAUGCUCUCCGCGUGCCCAGGGAGAACAUGGAGGCCAUCUCACCACUCAAG	0.709
CGCUGGCCCAAGCUGAUGGACUCUGAUCUUGAUCUCUAAGGUAUUAUGUGUGCCUUCUCUUAGUCCCUGUUUUCGGGAUGUUAUGAAUCUCAGUACUGUGGUUUGAAAGCACCAGCUUUG	0.171
GUAGCUGGGACUACAGAAAUGCUGGUAGUGCUCCGGCCUUGCUGAUGACUUCUGAUGUCCCAGCAAAUGUUGGCAUUCACUGCAAUAGAGAAGAUACUUCUGAGGACCCACGUCUAAGGU	0.166
UUUGUAUUUAUGCUAAGCACACGUGCUGGUGGUCUGGGCAUCAAUCUUGCAACUGCUGAUGUAGUAAUUUUAUAUGACUCAGAUUGGAAUCCCCAAGUUGAUCUUCAGGCUAUGGACCGU	0.296
UUGGAAGGACCAGAGCCCAGUCAGCUCAAACCAUUAGUCAUACAGGCUAUGCCCACCCUAAUAGAAUUAAUGAAAGACCCCAGUGUAGUUGUUCGAGACACAACAGCGUGGACUGUGGGC	3.28
CACGUGUCUGCAGUACUUGAUGUGGACUACUCUCCCACUGGGAAGGAGUUUGUGUCUGCCAGCUUUGAUAAGUCUAUUAGAAUCUUUCCUGUAGACAAGAGCCGAAGCAGGGAAGUGUAU	0.266
AAAGUGGACUAUGGCGAGUACAUGGAUAAAAAUAAUGUGAGGCGGCAAGCAACAACAAUCAUAGCUGAUAACAUUAUAUUUCUGAGUGACCAGACAAAAGAAAAGGCGUAGAAAGGAUGA	1.5
AGUACUGACUCAGGCGGAUUUUGCAACACCAAGCUCACAGCAGCAGCAUCUUAGUCACAGUUAGGUAGUUUUGGGGCUCUGUGGCCAGGGUUUUAUUCACAUGCAGGUUUGGAAAAUGUA	3.26

Block 2
Target: CREBZF, bZIP domain (human)
Technique: DHFR protein complementation
Medium: yeast
Setting: single substitutions, most at no-binding floor
Relative to: wild-type JUN-FOS pair
Reading: higher = stronger binding
Starting sequence: JUN, bZIP domain (human); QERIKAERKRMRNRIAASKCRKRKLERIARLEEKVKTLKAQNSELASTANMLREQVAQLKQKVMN; partner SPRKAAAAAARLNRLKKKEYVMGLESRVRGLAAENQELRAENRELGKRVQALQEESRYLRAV
Variant	binding fitness [natural log]
E44I	-1.15
S43R	-1.47
I28A	-1.45
N42R	-1.47
A29R	-1.4
S47K	-1.56
A46F	-1.33
L31A	-1.42
K36L	-1.49
K39S	-1.35
N42D	-1.45

Block 3
Target: ABI1, truncated, D143A, DHFR fusion (Arabidopsis thaliana)
Technique: DHFR PCA, deep sequencing
Medium: yeast
Setting: methotrexate growth selection, single substitutions
Added: (+)-ABA 2500 µM
Relative to: wild-type fitted maximum
Reading: higher = stronger binding
Starting sequence: PYL1, truncated, DHFR fusion (Arabidopsis thaliana); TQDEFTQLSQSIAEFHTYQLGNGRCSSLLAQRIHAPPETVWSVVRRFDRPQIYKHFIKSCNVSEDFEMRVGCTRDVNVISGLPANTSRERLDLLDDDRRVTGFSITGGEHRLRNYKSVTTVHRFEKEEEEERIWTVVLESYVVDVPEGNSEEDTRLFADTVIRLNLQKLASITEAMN
Variant	relative binding score [%]
V137N	6.14
Y18I	93
M176C	90
S26E	80.5
F47R	-11.3
Q31T	74.9
I79T	102
S42R	103
E64F	96.9
M68T	93.7
D3G	94.5
Y141A	9.07
L166K	2.06
S80M	47.2
V118P	13.9
S150R	89.4
I133E	106
R132Y	89.5

Block 4
Target: CCNE2, cyclin fold, Cln2 fusion (human)
Technique: yeast growth competition, sequencing
Medium: yeast
Setting: strong parent motif
Relative to: not given
Reading: higher = stronger binding
Starting sequence: BRCA2 docking peptide (human); CKKRRALDFLSRL; partner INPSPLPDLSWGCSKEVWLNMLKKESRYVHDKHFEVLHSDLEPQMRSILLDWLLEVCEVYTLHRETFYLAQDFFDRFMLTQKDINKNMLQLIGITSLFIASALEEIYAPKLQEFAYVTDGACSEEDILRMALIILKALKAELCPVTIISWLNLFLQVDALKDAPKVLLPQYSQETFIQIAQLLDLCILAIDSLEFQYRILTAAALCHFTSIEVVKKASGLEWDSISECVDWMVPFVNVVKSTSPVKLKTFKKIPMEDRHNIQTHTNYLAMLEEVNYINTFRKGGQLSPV
Variant	normalised enrichment score
R4A	0.608
F9L	0.8
F9A	1.29
D8A	1.5
R5A	1.4
L7A	1.32
K2A	0.796

A few entries again (block 4):
Variant	normalised enrichment score
R4A	0.608
F9L	0.8
F9A	1.29
D8A	1.5
R5A	1.4
L7A	1.32
K2A	0.796
